Published values from different studies.
Each numbered part is a random draw from the data of one study; scales do not carry over between parts.
Sequence of UniProt Q8H174 (whole entry, looked up): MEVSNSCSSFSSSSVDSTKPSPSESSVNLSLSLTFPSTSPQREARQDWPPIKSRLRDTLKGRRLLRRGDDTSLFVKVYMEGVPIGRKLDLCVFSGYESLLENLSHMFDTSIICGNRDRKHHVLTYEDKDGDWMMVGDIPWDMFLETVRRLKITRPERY
Sequence of UniProt Q9C8N7 (whole entry, looked up): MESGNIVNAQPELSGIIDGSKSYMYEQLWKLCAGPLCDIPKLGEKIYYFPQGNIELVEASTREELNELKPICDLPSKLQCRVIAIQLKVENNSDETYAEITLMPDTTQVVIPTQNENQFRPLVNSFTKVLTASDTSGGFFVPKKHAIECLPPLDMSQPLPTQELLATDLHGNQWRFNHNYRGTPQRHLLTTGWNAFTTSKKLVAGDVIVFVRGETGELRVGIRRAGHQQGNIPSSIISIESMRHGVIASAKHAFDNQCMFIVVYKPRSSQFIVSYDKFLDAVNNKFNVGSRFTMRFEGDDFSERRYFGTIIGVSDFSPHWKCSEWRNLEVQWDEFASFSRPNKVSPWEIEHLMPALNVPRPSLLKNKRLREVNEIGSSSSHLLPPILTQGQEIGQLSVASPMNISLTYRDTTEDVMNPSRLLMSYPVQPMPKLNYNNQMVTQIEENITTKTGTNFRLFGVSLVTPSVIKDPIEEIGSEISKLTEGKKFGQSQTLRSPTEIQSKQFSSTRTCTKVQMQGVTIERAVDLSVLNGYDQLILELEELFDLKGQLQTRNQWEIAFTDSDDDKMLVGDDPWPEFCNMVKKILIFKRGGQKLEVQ
Sequence of UniProt Q9UPZ9 (whole entry, looked up): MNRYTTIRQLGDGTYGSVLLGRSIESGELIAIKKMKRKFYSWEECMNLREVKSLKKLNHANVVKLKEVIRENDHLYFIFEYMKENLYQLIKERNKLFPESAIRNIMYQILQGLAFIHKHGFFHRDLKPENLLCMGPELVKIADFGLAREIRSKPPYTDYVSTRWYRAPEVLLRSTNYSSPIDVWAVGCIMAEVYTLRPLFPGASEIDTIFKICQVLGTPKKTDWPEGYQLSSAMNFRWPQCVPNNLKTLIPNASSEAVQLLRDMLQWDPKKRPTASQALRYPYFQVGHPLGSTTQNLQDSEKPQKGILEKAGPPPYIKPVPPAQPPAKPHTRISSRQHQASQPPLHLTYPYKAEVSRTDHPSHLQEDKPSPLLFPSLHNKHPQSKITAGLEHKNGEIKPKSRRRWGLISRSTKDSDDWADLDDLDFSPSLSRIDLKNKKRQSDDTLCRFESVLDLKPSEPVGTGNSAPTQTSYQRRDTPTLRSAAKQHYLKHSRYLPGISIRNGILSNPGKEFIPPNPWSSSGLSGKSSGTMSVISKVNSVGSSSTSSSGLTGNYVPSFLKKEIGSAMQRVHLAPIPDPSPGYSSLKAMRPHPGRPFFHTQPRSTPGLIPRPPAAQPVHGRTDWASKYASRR
Sequence of UniProt P11802 (whole entry, looked up): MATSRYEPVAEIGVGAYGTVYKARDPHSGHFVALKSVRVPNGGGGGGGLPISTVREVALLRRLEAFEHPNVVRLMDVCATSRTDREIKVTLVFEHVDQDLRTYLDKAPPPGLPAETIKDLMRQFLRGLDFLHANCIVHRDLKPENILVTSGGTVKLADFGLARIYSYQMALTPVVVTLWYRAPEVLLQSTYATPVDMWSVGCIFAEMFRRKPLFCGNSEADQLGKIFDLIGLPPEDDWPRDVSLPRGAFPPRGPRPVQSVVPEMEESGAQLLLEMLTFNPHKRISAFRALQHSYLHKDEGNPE
Sequence of UniProt P07949 (whole entry, unmodified, looked up): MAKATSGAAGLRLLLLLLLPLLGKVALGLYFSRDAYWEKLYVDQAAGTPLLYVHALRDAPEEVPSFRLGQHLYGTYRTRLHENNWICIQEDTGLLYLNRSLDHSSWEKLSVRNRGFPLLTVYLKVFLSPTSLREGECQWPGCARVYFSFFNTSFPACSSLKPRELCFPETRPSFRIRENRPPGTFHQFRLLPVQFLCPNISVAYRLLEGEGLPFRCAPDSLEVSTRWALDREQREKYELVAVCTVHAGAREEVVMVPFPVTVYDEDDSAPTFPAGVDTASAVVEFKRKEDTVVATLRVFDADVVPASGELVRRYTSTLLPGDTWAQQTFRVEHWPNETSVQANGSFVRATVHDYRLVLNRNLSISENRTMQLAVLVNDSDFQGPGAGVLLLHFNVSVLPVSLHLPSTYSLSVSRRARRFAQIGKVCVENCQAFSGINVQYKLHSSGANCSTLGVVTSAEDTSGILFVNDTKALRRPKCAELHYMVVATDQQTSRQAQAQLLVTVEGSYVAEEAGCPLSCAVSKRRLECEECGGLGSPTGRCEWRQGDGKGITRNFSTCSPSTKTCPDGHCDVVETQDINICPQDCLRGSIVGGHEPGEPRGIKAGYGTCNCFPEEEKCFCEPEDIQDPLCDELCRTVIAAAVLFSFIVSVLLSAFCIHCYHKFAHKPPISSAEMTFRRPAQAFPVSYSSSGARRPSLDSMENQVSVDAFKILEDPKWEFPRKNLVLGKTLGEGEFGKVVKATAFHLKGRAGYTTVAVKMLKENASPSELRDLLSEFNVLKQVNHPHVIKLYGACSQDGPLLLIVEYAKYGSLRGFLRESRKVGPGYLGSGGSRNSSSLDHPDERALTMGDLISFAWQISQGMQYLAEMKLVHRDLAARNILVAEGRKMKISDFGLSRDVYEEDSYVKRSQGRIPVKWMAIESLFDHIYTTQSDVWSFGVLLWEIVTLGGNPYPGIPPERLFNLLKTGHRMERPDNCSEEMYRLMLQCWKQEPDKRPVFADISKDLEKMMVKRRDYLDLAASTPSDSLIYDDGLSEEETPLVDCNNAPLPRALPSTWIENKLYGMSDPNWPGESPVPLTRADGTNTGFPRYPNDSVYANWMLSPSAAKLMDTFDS
Sequence of UniProt Q9C5X0 (whole entry, looked up): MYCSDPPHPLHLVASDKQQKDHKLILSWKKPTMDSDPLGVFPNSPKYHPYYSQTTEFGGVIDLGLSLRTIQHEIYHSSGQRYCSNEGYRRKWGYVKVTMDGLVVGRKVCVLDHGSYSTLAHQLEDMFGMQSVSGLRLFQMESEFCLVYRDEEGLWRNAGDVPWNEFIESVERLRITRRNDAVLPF

Set 1
Structure (SMILES): CS(=O)(=O)N1CCCC(NC(=O)[C@H](CCC2CCCCC2)NC(=O)c2ccc(CNc3ncnc4c3nnn4-c3ccccc3)cc2)C1 (some centres unmarked)
Technique: competition with immobilised ligand
Concentration: 0.1 µM
Endpoint: remaining binding
Cyclin-dependent kinase 4, with cyclin D1 (CDK4, Homo sapiens, UniProt P11802); cell-free assay: 100%
RET (Homo sapiens, UniProt P07949, V804L); cell-free assay: 83%
DYRK1A (Homo sapiens, UniProt Q13627); cell-free assay: 87%
CILK1 (Homo sapiens, UniProt Q9UPZ9); binding: 100%

Set 2
Target: cGMP-dependent protein kinase 2 (PRKG2, Homo sapiens, UniProt Q13237)
Observed: enzyme activity
Mode: inhibitor
Concentration: 0.5 µM
Baseline: control
Endpoint: remaining activity
Construct (Q13237 1-762): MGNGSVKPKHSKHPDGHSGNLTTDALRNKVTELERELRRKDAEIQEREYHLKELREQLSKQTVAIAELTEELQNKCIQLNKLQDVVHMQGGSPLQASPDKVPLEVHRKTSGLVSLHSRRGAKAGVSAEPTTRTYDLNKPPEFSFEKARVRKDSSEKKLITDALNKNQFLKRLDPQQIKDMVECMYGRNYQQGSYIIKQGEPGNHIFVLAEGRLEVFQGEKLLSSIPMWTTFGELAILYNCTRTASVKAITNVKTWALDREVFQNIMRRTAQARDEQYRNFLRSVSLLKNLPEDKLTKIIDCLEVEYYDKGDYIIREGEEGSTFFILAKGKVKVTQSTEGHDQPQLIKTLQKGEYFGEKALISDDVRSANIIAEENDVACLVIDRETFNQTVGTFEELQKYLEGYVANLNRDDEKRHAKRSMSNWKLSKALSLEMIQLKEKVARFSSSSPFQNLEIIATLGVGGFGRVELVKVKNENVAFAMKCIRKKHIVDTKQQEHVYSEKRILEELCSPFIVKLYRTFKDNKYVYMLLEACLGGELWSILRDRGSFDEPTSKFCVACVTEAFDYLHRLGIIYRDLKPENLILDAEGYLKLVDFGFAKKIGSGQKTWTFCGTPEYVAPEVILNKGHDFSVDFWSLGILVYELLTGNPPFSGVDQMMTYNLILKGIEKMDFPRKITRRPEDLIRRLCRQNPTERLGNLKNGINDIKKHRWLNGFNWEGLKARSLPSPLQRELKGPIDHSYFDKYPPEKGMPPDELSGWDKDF
N#CC(C#N)=C(N)/C(C#N)=C/c1ccc(O)cc1: 86.9%
O=C1NC(=O)C(c2cn(CCCn3ccnc3)c3ccccc23)=C1Nc1ccccc1: 80.3%
Nc1ncnc2n[nH]c(Nc3ccc(F)cc3)c12: 97%
COc1ccc(OC)c2c(=S)c3ccccc3[nH]c12: 62.2%
COc1cc2nccc(Oc3ccc(NC(=S)NC(=O)c4ccccc4C)cc3)c2cc1OC: 90.5%
O=C1NC(=O)C(c2cn(CCCO)c3ncccc23)=C1c1cnccn1: 118%
CCOC(=O)c1c(C)[nH]c(/C=C2\C(=O)Nc3ccccc32)c1C: 78.9%
O=S(=O)(c1cccc2cnccc12)N1CCCNCC1: 98.9%
CO[C@H]1C[C@@H]2CC[C@@H](C)[C@@](O)(O2)C(=O)C(=O)N2CCCC[C@H]2C(=O)O[C@H]([C@H](C)C[C@@H]2CC[C@@H](O)[C@H](OC)C2)CC(=O)[C@H](C)/C=C(\C)[C@@H](O)[C@@H](OC)C(=O)[C@H](C)C[C@H](C)/C=C/C=C/C=C/1C: 91.9%
O=c1c2ccccc2[nH]c(=S)n1CCN1CCC(=C(c2ccc(F)cc2)c2ccc(F)cc2)CC1: 104%
Cc1ccc(Nc2nccc(N(C)c3ccc4c(C)n(C)nc4c3)n2)cc1S(N)(=O)=O: 96%
CN(C)c1ccc(C=C2C(=O)Nc3ccccc32)cc1: 105%
Oc1ccc(-c2nc(-c3ccncc3)c(-c3ccc(F)cc3)[nH]2)cc1: 94.2%
Nc1[nH]nc2nc3ccccc3nc12: 66.7%
O=C(O)c1ccc2c3c1cccc3c(=O)n1c3ccccc3nc21: 94.8%
CNC(=O)c1cc(Oc2ccc(NC(=O)Nc3ccc(Cl)c(C(F)(F)F)c3)cc2)ccn1: 90.9%
COc1ccc(CNC(=O)Nc2ncc([N+](=O)[O-])s2)cc1: 100%
Cn1c2ccccc2c2c3c(c4c5ccccc5n(CCC#N)c4c21)CNC3=O: 28.2%
Cc1nc(-c2ccccc2)c(-c2ccncc2)o1: 85%
O=C(Nc1cccc(Nc2cc(Nc3cccc(C(F)(F)F)c3)ncn2)c1)C1CC1: 103%
CC(C)[C@H](CO)Nc1nc(Nc2cc(N)cc(Cl)c2)c2ncn(C(C)C)c2n1: 88.8%
COc1cc2ncnc(Nc3ccc(Oc4ccccc4)cc3)c2cc1OC: 98.3%
OCC(O)CCON=C1C(c2c(O)[nH]c3ccccc23)=Nc2ccccc21 (centres unmarked): 28.1%
COc1ccc(C(=O)Nc2sc3c(c2C(N)=O)CCCC3)cc1OC: 104%

Set 3
Target: Ras GTPase-activating protein-binding protein 1, full length (G3BP1, Homo sapiens, UniProt Q13283)
Sequence of UniProt Q13283 (whole entry, looked up): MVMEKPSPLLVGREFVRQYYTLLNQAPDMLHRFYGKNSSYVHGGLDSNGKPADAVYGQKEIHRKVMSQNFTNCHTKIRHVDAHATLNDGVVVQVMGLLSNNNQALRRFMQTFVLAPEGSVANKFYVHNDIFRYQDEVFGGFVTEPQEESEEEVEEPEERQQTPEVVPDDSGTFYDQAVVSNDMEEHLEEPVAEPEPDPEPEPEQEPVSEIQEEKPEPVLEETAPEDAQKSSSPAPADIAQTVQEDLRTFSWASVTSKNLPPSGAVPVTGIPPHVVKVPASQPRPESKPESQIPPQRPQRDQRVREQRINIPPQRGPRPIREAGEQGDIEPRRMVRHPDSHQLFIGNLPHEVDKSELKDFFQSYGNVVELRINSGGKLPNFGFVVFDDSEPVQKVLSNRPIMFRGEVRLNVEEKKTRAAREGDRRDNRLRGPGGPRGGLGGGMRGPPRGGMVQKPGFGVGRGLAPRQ
Technique: RNA Bind-n-Seq
Molecule type: RNA
Matrix: in vitro
Concentration: 200 nM
Notes: whole 134-nt RNA, ends assumed
Together with: 150 mM KCl
Baseline: input library
Reading: higher = stronger binding
Endpoint: log2 enrichment
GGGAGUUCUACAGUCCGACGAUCCAAGUCCUGUGCUACACAUCGUAUGUACCGAAUCGGUUUGGUUUGGUUUUUUUGGAAAGUAUUAUGUUACGCCGUUCGGAUCUGCACUUCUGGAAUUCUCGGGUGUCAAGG: -0.729
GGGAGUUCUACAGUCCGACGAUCAAAAUGCAGGUGGGCAUCUUUGGGAAGUGGGGCAAGGGGGGGAUAGGGAGGGGGGUAACACUUUGGGAACAGGUGGUCCCAGGUCGUUUCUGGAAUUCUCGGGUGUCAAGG: 1.33
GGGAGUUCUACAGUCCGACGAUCCAAGUCCUGUGCUACACAUCGUAUGUACCGAAUCGGCCCGGGCCCGGGGCCCGGGAAAGUAUUAUGUUACGCCGUUCGGAUCUGCACUUCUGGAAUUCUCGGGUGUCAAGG: -1.06
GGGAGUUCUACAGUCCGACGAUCGCAGGAAGUAAAAACAAAUGGAAAUGCUUCGGAUAGUGGCAGGGGUGGGGGUUGCUAAGGAAAUGGUGGGAUGGGAGUGGGUAAAGAGUUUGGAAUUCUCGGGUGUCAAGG: 0.715
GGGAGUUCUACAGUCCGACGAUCCCUGUGCUACACAUCGUAUGUACCGAAUCGGGGAAAGGGGUUUUUUUGGGGAAAAAGGGGAAAGUAUUAUGUUACGCCGUUCGGAUCUGCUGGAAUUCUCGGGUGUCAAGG: 0.211
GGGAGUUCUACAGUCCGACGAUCCCUGUGCUACACAUCGUAUGUACCGAAUCAAAUUUUUAAACCCCCCCAAAUUUUUUUAAAAAAGUAUUAUGUUACGCCGUUCGGAUCUGCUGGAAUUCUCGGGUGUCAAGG: 0.243
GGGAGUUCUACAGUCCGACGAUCAGUCCUGUGCUACACAUCGUAUGUACCGAAUCGGGUGGGUUUUUGGGAAAAAAAGGGAAAGUAUUAUGUUACGCCGUUCGGAUCUGCACUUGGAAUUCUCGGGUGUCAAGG: -0.325
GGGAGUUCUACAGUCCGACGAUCAAGUCCUGUGCUACACAUCGUAUGUACCGAAUCGGGUUUUUUUGGGAGGGUUUGGGAAAGUAUUAUGUUACGCCGUUCGGAUCUGCACUUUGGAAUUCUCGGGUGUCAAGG: -0.135

Set 4
Target: RNA binding protein fox-1 homolog 2, RRM domain, GST-SBP tag (RBFOX2, Homo sapiens, UniProt O43251-10, residues 100-194)
Technique: RNA Bind-n-Seq
Molecule type: RNA
Matrix: in vitro
Concentration: 365 nM
Notes: natural RNA segment, single round, ends assumed
Baseline: no-protein control
Reading: higher = stronger binding
Endpoint: RBNS enrichment (R)
Residues (chain): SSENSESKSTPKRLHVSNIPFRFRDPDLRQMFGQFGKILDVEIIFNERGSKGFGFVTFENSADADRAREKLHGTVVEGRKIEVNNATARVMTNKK
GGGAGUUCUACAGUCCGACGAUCGCCACCUUGCCCACCGCAUGACCCCUUGUGCCAGUCGCGCAGCUGUGUGUGGUGUCGCGCCCUCUCCCCUUGGGGGCUGGGUGGGCACACCCUCCCCUCUUGUCUACUCAUGGAAUUCUCGGGUGCCAA: 0.64
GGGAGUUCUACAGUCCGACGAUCACAUCUGCCUGAGGUCAGGAGGCAAUUUGCCUGCCUUGUACAAAAGCUCAGGUGAAAGACUGAGAUGAAUGUCUUUCCUCUCCCUGCCUCCCACCAGACUUCCUCCUGGAUGGAAUUCUCGGGUGCCAA: 0.29
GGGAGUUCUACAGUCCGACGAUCGGACCCAGCCUUGAGACAGCUGCUGUGGGGACAGUACUGAAGACUCUGCAGCCCUCGGGACCCCACUCGGAGGGUGCCCUCUGCUCAGGCCUCCCUAGCACCUCCCCCUAUGGAAUUCUCGGGUGCCAA: 0.455
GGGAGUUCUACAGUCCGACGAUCACUGCAGCCUCCACCACCUGAGUUCAAGCGAUUUUUCUGCCUCAACCUCUCCUGAGUAGCUGGGACUACAGGUGCAUGACACCACACCCAGCUAAUUUUUGUAUUUUUAUUGGAAUUCUCGGGUGCCAA: 0.804
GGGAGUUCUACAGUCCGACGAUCACAAGUGUAUGCUUUCCACUCUGGUUGAUCAUUAGUUCCCUAGUACAUACUUAAAAGUUUACCAAAUGUUAACCAGAUUUUUGAAACCUCCCCCCCCCCCUAUUUAUUUAUGGAAUUCUCGGGUGCCAA: 1.14
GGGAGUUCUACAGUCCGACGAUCGAGGAAGAUAAAUGCGAGAGGGCAAUCCUUUACUAUUCUCAUAUUUAUUUAUCUCUCAUUCUGUAUAGAAUUCUUGCCGCCAUCCCAGGUCUAGCCUUAGGAGCAAAUGUUGGAAUUCUCGGGUGCCAA: 0.246
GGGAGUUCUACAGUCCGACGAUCUACCCUAUUUUUAAGAAGUAGGUAUCAGGUACAGCCAGUGUUUUCAUUGUCUGAUUAAAACAGUUUAUAUGUUGUUGUUAGCUCAUUUAAAGCUACAUCAUGCUGUAGUGUGGAAUUCUCGGGUGCCAA: 0.271
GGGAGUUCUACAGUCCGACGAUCCCUAUAGUCCCAGCUAUUCGGGAGGCUGAGGCAAGAGAAUUGCUUGAACCCGGGAGGUGGAGGUCGCAGUGAGCUGAGAUCCUGCCACUGCACUCCAACCUGGGGGUAACUGGAAUUCUCGGGUGCCAA: 0.466

Set 5
Molecule: B1 (IAA2)
Technique: two-hybrid
Reading: higher = firmer interaction
Endpoint: positive tests
B1: IAA2 (Arabidopsis thaliana, UniProt P49678); chain MAYEKVNELNLKDTELCLGLPGRTEKIKEEQEVSCVKSNNKRLFEETRDEEESTPPTKTQIVGWPPVRSSRKNNNSVSYVKVSMDGAPYLRKIDLKTYKNYPELLKALENMFKVMIGEYCEREGYKGSGFVPTYEDKDGDWMLVGDVPWDMFSSSCKRLRIMKGSDAPALDSSL
IAA14 (Arabidopsis thaliana, UniProt Q38832); baseline: out of 4 tests: 4
IAA4 (Arabidopsis thaliana, UniProt P33077); baseline: out of 4 tests: 4
IAA34 (Arabidopsis thaliana, UniProt Q9C5X0); baseline: out of 4 tests: 4
ARF22 498-598 (Arabidopsis thaliana, UniProt Q9C8N7); baseline: out of 4 tests: 0
IAA31 (Arabidopsis thaliana, UniProt Q8H174); baseline: out of 2 tests: 0
IAA16 (Arabidopsis thaliana, UniProt O24407); baseline: out of 4 tests: 4

Repeated from above (set 2):
CNC(=O)c1cc(Oc2ccc(NC(=O)Nc3ccc(Cl)c(C(F)(F)F)c3)cc2)ccn1: 90.9%
COc1ccc(CNC(=O)Nc2ncc([N+](=O)[O-])s2)cc1: 100%
Cn1c2ccccc2c2c3c(c4c5ccccc5n(CCC#N)c4c21)CNC3=O: 28.2%
Cc1nc(-c2ccccc2)c(-c2ccncc2)o1: 85%
O=C(Nc1cccc(Nc2cc(Nc3cccc(C(F)(F)F)c3)ncn2)c1)C1CC1: 103%
